Assay results pooled from the literature.
Parts stem from different laboratories: compare values within a part only. Positions count from the first letter of the parent shown.

Series 1
Target: Phosphate system positive regulatory protein PHO4, full length, GST-tagged (PHO4, Saccharomyces cerevisiae, UniProt P07270, residues 1-312)
Technique: competition protein-binding microarray
Form: double-stranded DNA, one strand shown
Medium: in vitro
Concentration: 2 µM
Notes: whole 60-bp probe, lowest competitor level
Added: Cbf1 competitor, 0.05 µM
Reading: higher = stronger binding
All sequences stand within: … GTCTTGATTCGCTTGACGCTGCTG
Residues (chain): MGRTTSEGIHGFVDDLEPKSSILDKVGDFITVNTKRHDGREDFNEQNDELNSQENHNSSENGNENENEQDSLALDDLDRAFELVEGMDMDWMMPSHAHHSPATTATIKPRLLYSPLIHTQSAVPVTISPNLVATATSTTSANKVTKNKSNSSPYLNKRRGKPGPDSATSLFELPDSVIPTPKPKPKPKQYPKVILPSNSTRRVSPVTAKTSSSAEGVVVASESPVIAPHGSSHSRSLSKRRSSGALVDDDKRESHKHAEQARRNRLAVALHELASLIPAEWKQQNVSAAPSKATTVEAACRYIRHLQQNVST
| Strand | fluorescence intensity [a.u.] |
| --- | --- |
| CGGGGTTAAGTTTGTAAGGTGGGTGGCTTGCAGCAG | 5110 |
| TGGAGAAATCTTGCATCCGTGCCGACCACGGCATTT | 6010 |
| AAAGCGGTAATTTCGCACGTGTTTTCACATATCTAT | 18900 |
| ATTGCCTTTGGTGTACTCATGACAAGGGTATATTTT | 4260 |
| TTAGGTGTCTGGCTCAGCGTGAGAAGATCTTAGAAG | 3750 |
| GTCTTGTCTCATTGCGGCGTGGGTGTCCCCACTTCA | 7230 |
| CTTGGGGTCTAGAAGCTCGTGTTCCATTCTTAGACA | 9140 |
| CGGGGTTAAGTTTGCAGGGTGGGTGGCTTGCAGCAG | 5180 |
| TGCGCAACAACTTTTCACGTGCTCTTATGTCTAGAA | 18000 |
| CAATCTGCGAATGCATCCGTGCCAGAATGAAACGGC | 5950 |
| ATTTTCTCTGATTTTCTCGTGCGGACAATAAGTAAA | 7340 |
| CGTCAATTAAAATGTTACGTGAGATGGGTTAAATAC | 4710 |
| AAATTACTAAGTTTTCACGTGTTATACCCCGTATGA | 12300 |
| CGTCCTAGTGATTGCGGTGTGGGTGCCATGAGGAAG | 7690 |
| CTAACGAAGGTTTGTCACAGCACTTACAAGCCAAGT | 3650 |
| ATGAAGGTTGGCGACCACGTGGTCGTTGATGCTGCC | 19100 |
| TTCGAAAAGATTCACCACGTTTCCGTCGTTATCAGC | 10600 |
| AGCGAGTTCACCCGTCACGTGCAAAGAGAACTCACA | 15900 |
| AAAGCGGTAATTTTTCACGTGTCATCACATATCTAT | 14100 |
| ACAAGAACACCATCCCAGGTGATAGGAGTGCTCTTT | 4710 |
| TGCATATTCGTCAGTGACGTGCAAAATTCTTTTGAA | 4430 |
| TGCGCAACAACTTGTCACGATACTTTATGTCTAGAA | 4470 |
| GTACTGCATCTTATTCCCGTGCCAGGGTCTCTGGGT | 9610 |

Series 2
Target: FOSB, bZIP domain (human)
Technique: DHFR protein complementation
Medium: yeast
Notes: single substitutions, most at no-binding floor
Reference: wild-type JUN-FOS pair
Reading: higher = stronger binding
Parent: JUN, bZIP domain (human); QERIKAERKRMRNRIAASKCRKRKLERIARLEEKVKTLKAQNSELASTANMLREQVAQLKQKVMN; partner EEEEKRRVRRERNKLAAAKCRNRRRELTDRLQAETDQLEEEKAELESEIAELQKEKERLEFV
| Substitution | binding fitness |
| --- | --- |
| Q55E | -0.0722 natural log |
| Q41I | -0.0227 natural log |
| Q55Y | -0.202 natural log |
| E32V | -0.137 natural log |
| Q55D | -0.333 natural log |
| S43W | -0.238 natural log |
| K39G | -0.719 natural log |
| E32M | -0.244 natural log |
| E33D | -0.148 natural log |
| S43L | -0.0725 natural log |
| A40M | -0.189 natural log |
| A46C | -0.336 natural log |
| I28C | -0.245 natural log |
| R53G | -0.966 natural log |
| Q41G | -0.113 natural log |

Series 3
Target: TAR DNA-binding protein 43, full length, His tag (TARDBP, Homo sapiens, UniProt Q13148, residues 1-414)
Technique: RNA Bind-n-Seq
Form: RNA
Medium: in vitro
Concentration: 20 nM
Notes: 6-mer, flanks averaged, single round
Added: 150 mM KCl
Reference: input library
Reading: higher = stronger binding
| Strand | 6-mer enrichment (R) |
| --- | --- |
| CCGGCG | 1.48 |
| ACUUCA | 0.553 |
| UCACUA | 0.559 |
| GCAUCU | 0.629 |
| CAACCA | 0.627 |
| CAAGGU | 0.838 |
| GACAAA | 0.763 |
| GUAAAG | 1.02 |
| UGACUU | 0.603 |
| GGUACC | 0.932 |
| ACUGGG | 1.96 |
| GUAGUA | 0.882 |
| UAGAAU | 0.723 |
| AUACUA | 0.609 |
| CGCGCC | 0.825 |
| UGUAUC | 0.621 |
| GCGUCA | 0.903 |

Series 4
Target: CCND2, cyclin fold, Cln2 fusion (human)
Technique: yeast growth competition, sequencing
Medium: yeast
Notes: strong parent motif
Reference: not given
Reading: higher = stronger binding
Parent: E2F1 docking peptide (human); PPVKRRLDFETDH
| Substitution | normalised enrichment score |
| --- | --- |
| PPVKRRHDFETDH [L7H] | 0.108 |
| PPVKRWLDFETDH [R6W] | 0.275 |
| PPVKRRLDFETCH [D12C] | 1.76 |
| PKVKRRLDFETDH [P2K] | 1.04 |
| PPVKRRLDFEGDH [T11G] | 2.01 |
| PPVMRRLDFETDH [K4M] | 1.78 |
| PPVKRFLDFETDH [R6F] | 0.819 |
| PPVKRRLDFERDH [T11R] | 1.8 |
| PPVKNRLDFETDH [R5N] | 0.319 |
| PPVKRRLDFEQDH [T11Q] | 2.07 |
| PPVKRRLDSETDH [F9S] | 0.381 |
| PEVKRRLDFETDH [P2E] | 1.05 |
| PPVKRRLDFITDH [E10I] | 0.769 |
| PPVKRRLDFETLH [D12L] | 1.47 |

Series 5
Target: UBE2Q1 UBC core domain (UniProt Q7Z7E8)
Technique: yeast two-hybrid
Medium: yeast
Notes: mostly zero background
Reference: not given
Reading: higher = stronger interaction
B1: TRIM38 RING domain (UniProt O00635); chain STKKMMEEATCSICLSLMTNPVSINCGHSYCHLCITDFFKNPSQKQLRQETFCCPQCRAPFHMDSLRP
B2: TRIM35 RING domain (UniProt Q9UPQ4); chain PSRSFKEELLCAVCYDPFRDAVTLRCGHNFCRGCVSRCWEVQVSPTCPVCKDRASPADLRT
B3: RNF150 RING domain (UniProt Q9ULK6); chain DKETESDFDNCAVCIEGYKPNDVVRILPCRHLFHKSCVDPWLLDHRTCPMCKMNILKALGIP
B4: RNF112 RING domain (UniProt Q9ULX5); chain QPMAPRELPTCSICLERLRDPISLDCGHDFCIRCFSTHRLPGCEPPCCPECRKICKQKRGLR
B5: TRIM55 RING domain (UniProt Q9BYV6); chain TMDNLEKQLICPICLEMFTKPVVILPCQHNLCRKCASDIFQASNPYLPTRGGTTMASGGRFRCPSCRHEVVLDRHG
B6: PEX2 RING domain (UniProt P28328); chain DNTLATSGKECALCGEWPTMPHTIGCEHIFCYFCAKSSFLFDVYFTCPKCGTEVHSLQPLK
B7: RNF5 RING domain (UniProt Q99942); chain ERGGAGATFECNICLETAREAVVSVCGHLYCWPCLHQWLETRPERQECPVCKAGISREKVVP
B8: TRIM15 RING domain (UniProt Q9C019); chain SLKVVHELPACTLCAGPLEDAVTIPCGHTFCRLCLPALSQMGAQSSGKILLCPLCQEEEQAETPMA
B9: MSL2 RING domain (UniProt Q9HCI7); chain LLPYFRQSLSCCVCGHLLQDPIAPTNSTCQHYVCKTCKGKKMMMKPSCSWCKDYEQFEENKQ
B10: TRIM10 RING domain (UniProt Q9UDY6); chain SVTSLADEVNCPICQGTLREPVTIDCGHNFCRACLTRYCEIPGPDLEESPTCPLCKEPFRPGSFRP
B11: RNF4 RING domain (UniProt P78317); chain TGLRPSGTVSCPICMDGYSEIVQNGRLIVSTECGHVFCSQCLRDSLKNANTCPTCRKKINHKRYHP
B12: RFPL2 RING domain (UniProt O75678); chain MAALFQEASSCPVCSDYLEKPMSLECGCAVCLKCINSLQKEPHGEDLLCCCSSMVSRKNKIRR
B13: ANKIB1 RING domain (UniProt Q9P2G1); chain LSPGDLDTSLCDICMCSISVFEDPVDMPCGHDFCRGCWESFLNLKIQEGEAHNIFCPAYDCFQLVPVDIIE
B14: TRIM3 RING domain (UniProt O75382); chain VQPMDKQFLVCSICLDRYQCPKVLPCLHTFCERCLQNYIPAQSLTLSCPVCRQTSILPEQGV
B15: RNF32 RING domain (UniProt Q9H0A6); chain SLLQGDSVQPCPICKEEFELRPQVLLSCSHVFHKACLQAFEKFTNKKTCPLCRKNQYQTRVIH
Construct (chain): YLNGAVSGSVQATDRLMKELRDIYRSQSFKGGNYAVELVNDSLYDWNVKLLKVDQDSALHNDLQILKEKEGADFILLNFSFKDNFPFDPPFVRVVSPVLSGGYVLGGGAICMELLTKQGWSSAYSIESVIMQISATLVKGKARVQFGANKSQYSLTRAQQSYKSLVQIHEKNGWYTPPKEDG
| Sequence | lacZ reporter activity |
| --- | --- |
| B1 (TRIM38 RING domain) | 0 |
| B2 (TRIM35 RING domain) | 0 |
| B3 (RNF150 RING domain) | 0 |
| ISNDSETLEECMVCSDMKRDTLFGPCGHIATCSLCSPRVKKCLICKEQVQSRTKIE (MIB1 RING domain (UniProt Q86YT6)) | 0 |
| B4 (RNF112 RING domain) | 0 |
| KRQCSDVDDICSICQAEFQKPILLICQHIFCEECMTLWFNREKTCPLCRTVISDHINKW (RNFT1 RING domain (UniProt Q5M7Z0)) | 0 |
| B5 (TRIM55 RING domain) | 0 |
| B6 (PEX2 RING domain) | 0 |
| B7 (RNF5 RING domain) | 0 |
| B8 (TRIM15 RING domain) | 0 |
| B9 (MSL2 RING domain) | 0 |
| B10 (TRIM10 RING domain) | 0 |
| B11 (RNF4 RING domain) | 0 |
| B12 (RFPL2 RING domain) | 0 |
| B13 (ANKIB1 RING domain) | 0 |
| SYEDKSNDFVCPICFDMIEEAYMTKCGHSFCYKCIHQSLEDNNRCPKCNYVVDNIDHLY (COP1 RING domain (UniProt Q8NHY2)) | 0 |
| MANWVFCNRCFQPPHRTSCFSLTNCGHVYCDACLGKGKKNECLICKAPCRTVLLSK (RNF212 RING domain (UniProt Q495C1)) | 0 |
| B14 (TRIM3 RING domain) | 0 |
| B15 (RNF32 RING domain) | 0 |

Series 6
Target: Sal-like protein 4, full length isoform A (SALL4, Homo sapiens, UniProt Q9UJQ4, residues 1-1053)
Chain of UniProt Q9UJQ4 (whole entry, looked up): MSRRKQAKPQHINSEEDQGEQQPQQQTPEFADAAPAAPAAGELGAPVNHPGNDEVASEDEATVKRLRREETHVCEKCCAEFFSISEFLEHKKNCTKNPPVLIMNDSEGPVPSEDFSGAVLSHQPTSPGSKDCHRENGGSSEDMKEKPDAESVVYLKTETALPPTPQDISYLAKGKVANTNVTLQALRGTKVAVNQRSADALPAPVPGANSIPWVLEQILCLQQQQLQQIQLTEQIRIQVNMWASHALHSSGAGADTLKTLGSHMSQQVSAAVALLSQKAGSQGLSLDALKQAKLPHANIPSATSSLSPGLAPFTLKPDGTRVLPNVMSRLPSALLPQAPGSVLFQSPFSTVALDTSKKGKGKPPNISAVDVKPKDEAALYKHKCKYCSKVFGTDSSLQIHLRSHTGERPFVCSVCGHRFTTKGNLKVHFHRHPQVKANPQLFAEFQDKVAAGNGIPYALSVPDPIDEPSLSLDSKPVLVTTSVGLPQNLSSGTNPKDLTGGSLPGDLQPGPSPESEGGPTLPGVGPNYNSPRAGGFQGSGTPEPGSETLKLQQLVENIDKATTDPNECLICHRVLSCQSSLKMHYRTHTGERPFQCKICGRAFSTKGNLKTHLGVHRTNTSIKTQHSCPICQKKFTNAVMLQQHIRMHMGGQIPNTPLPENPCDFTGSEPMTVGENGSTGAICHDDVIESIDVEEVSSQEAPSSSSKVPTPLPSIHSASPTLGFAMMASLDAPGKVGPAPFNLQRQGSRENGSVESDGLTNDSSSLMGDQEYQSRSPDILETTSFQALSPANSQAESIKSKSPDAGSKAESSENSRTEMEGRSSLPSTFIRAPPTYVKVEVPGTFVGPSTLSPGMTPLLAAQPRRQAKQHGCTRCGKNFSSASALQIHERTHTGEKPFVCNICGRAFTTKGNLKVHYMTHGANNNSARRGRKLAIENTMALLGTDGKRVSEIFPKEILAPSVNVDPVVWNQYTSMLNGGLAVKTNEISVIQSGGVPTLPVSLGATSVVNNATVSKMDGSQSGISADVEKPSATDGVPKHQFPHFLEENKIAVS
Technique: universal PBM
Form: double-stranded DNA, one strand shown
Medium: in vitro
Concentration: 600 nM
Notes: 8-mer, flanks averaged, mean of replicates
Reading: higher = stronger binding
| Strand | E-score |
| --- | --- |
| GAACTGTC | -0.122 |
| AAGTGAGA | 0.017 |
| GCAACGGA | -0.13 |
| CCCAGTCC | -0.173 |
| GACCAGTA | -0.236 |
| GCCACAAA | -0.0246 |
| CGTGTTTC | -0.0439 |
| ACTACCAA | 0.156 |
| GGACAATA | 0.212 |
| CACAAGAA | 0.029 |
| GAATCTTA | 0.17 |
| ACCCGAAG | -0.0912 |
| CTTCACAC | 0.113 |
| CGGATAAG | -0.106 |
| ATGGCTGG | -0.23 |
| TGACATCA | 0.141 |
| AAGGCGCC | -0.31 |
| TGGATTAA | 0.249 |
| ACCAGGGT | -0.302 |
| AGAAGTTG | -0.0391 |
| CCCTCAAA | -0.0225 |
| AAGAAGAC | 0.000835 |
| CACACTAC | 0.0301 |
| AAGCGGTG | -0.179 |
| AGAAACCC | -0.0317 |

A few entries again (series 5):
| Sequence | lacZ reporter activity |
| --- | --- |
| B5 (TRIM55 RING domain) | 0 |
| B14 (TRIM3 RING domain) | 0 |
| SYEDKSNDFVCPICFDMIEEAYMTKCGHSFCYKCIHQSLEDNNRCPKCNYVVDNIDHLY (COP1 RING domain (UniProt Q8NHY2)) | 0 |
| B8 (TRIM15 RING domain) | 0 |
| B7 (RNF5 RING domain) | 0 |
| B12 (RFPL2 RING domain) | 0 |
| B6 (PEX2 RING domain) | 0 |
| B10 (TRIM10 RING domain) | 0 |
| B2 (TRIM35 RING domain) | 0 |
